# Values quoted from earlier work, collected from citations in different studies.
# Compare with care: the assays were run in different laboratories. ± marks the error that the study gave.
# Chain of UniProt Q86UX6 (whole entry, looked up): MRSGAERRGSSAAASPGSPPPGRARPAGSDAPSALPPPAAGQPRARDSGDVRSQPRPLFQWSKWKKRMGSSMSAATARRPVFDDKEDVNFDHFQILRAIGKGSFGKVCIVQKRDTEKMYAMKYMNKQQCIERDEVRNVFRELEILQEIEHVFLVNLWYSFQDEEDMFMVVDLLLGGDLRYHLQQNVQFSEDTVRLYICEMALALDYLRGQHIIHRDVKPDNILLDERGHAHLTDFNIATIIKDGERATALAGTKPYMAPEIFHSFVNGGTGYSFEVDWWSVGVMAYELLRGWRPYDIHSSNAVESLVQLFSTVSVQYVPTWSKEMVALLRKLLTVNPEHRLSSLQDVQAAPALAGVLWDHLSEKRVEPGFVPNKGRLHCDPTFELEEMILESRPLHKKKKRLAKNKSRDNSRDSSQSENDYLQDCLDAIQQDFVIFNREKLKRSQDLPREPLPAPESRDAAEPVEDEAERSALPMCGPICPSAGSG
SMILES,target or system,assay,test system,conditions,how to read,endpoint,result
O=C(Nc1ccc(OC2CCN(Cc3ccccc3)C2)c(Cl)c1)c1cccs1 (stereo not shown),Plasmodium falciparum,whole cell extended time,3D7,72 h,,IC50,390 nM
Cc1ccc(Oc2ccc(NC(=O)CNc3ccccc3N3CCCC3=O)cc2)cc1,Plasmodium falciparum,parasite growth,3D7 parental,,,EC50,338 nM
Cc1[nH]c(C)c(-c2ccc(OCCSc3ccncc3)cc2)c(=O)c1Br,Plasmodium falciparum,whole cell extended time,3D7,72 h,,IC50,390 nM
C=C(C)[C@@H]1CC[C@]2(CO)CC[C@]3(C)[C@H](CC[C@@H]4[C@@]5(C)CC[C@H](O)[C@@](C)(COC(=O)/C=C/c6ccc(O)cc6)[C@@H]5CC[C@]43C)[C@@H]12,Plasmodium falciparum,,Dd2,concentration not given,,antiplasmodial activity,active
Nc1cc(C(F)(F)F)c(-c2nc(N3CCOCC3)nc(N3CCOCC3)n2)cn1,"STK32C (Homo sapiens, UniProt Q86UX6)",enzyme activity,,10 µM,baseline: untreated,remaining activity,79%
CCc1nc(N)nc(N)c1-c1ccc(Cl)cc1,Plasmodium falciparum,,"3D70087/N9, NSG mouse",,,ED90,0.9 mg/kg
N/C(CC(O)c1cc2c(F)cc(F)cc2c2cc(C(F)(F)F)ccc12)=N\c1ccc(F)cc1 (stereo not shown),Plasmodium falciparum,parasite growth,Dd2 parent,,,IC50,15 nM
N#Cc1cc(NC(=O)[C@H]2c3ccccc3C(=O)N(CC(F)(F)F)[C@@H]2c2cccnc2)ccc1F,Plasmodium falciparum,eryptosis induction,trophozoite/schizont-infected erythrocytes,,,EC50,30 nM
C/C=C1\NC(=O)[C@H]2CSSCC/C=C/[C@H](CC(=O)N[C@H](C(C)C)C(=O)N2)OC(=O)[C@H](C(C)C)NC1=O,Plasmodium falciparum,parasite growth,3D7,,,IC50,115 ± 35 nM
Cc1cccc2nc(-c3ccc(-c4ccc(CN5CC(C)OC(C)C5)cc4)cc3)[nH]c12 (stereo not shown),Plasmodium falciparum,whole cell extended time,3D7,72 h,,IC50,520 nM
CCN(CC)CCCC(C)Nc1ccnc2cc(Cl)ccc12 (stereo not shown),Plasmodium falciparum,,"3D70087/N9, NSG mouse",,,ED90,4.3 mg/kg
Cc1cccc2nc(-c3ccc(-c4cccc(CNCCCN5CCCC5=O)c4)cc3)[nH]c12,Plasmodium falciparum,whole cell extended time,3D7,72 h,,IC50,840 nM
CCCCN(CCCC)CC(O)c1cc(Cl)cc2c1-c1ccc(Cl)cc1/C2=C/c1ccc(Cl)cc1 (stereo not shown),Plasmodium falciparum,,Dd2,,,IC50,2.3 ± 0.5 nM
